Assay results gathered from unrelated publications.
± marks the error that the study gave.
Sequence of UniProt P62258 (whole entry, looked up): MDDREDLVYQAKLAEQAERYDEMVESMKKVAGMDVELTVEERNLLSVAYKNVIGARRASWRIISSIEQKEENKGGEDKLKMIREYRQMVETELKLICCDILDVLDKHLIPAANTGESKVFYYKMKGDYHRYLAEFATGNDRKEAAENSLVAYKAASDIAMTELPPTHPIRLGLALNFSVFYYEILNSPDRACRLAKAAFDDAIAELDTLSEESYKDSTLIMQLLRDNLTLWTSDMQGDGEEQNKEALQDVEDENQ

`C=CC(=O)N1CC[C@H](n2nc(C#Cc3cc(OC)cc(OC)c3)c3c(N)ncnc32)C1` — result for “adverse drug reaction incidence”: 18.2% (patients with advanced solid tumours; oral, dose not given, Dysgeusia, any grade, QD, with: sevelamer hydrochloride).
`COc1cc(C(=O)NC2CCN(C)CC2)c(F)cc1Nc1ncc(C(F)(F)F)c(Oc2cccc3c2C(=O)N(C)C3)n1` — result for “fraction excreted in urine (0-48 h)”: 2.49% (human patients, urine; oral, 10 mg single dose, geometric mean; relative to: dose).
With `CC[C@H](C)[C@H](NC(=O)[C@H](Cc1ccccc1)NC(=O)[C@H](CCC(=O)O)NC(=O)[C@H](CCCNC(=N)N)NC(=O)[C@H](C)NC(=O)[C@H](C)NC(=O)[C@H](CCC(N)=O)NC(=O)[C@H](CCC(=O)O)NC(=O)[C@H](CCC(=O)O)NC(=O)[C@H](CC(C)C)NC(=O)[C@H](Cc1ccc(O)cc1)NC(=O)[C@H](CO)NC(=O)[C@H](CO)NC(=O)[C@@H](NC(=O)[C@H](CC(=O)O)NC(=O)[C@H](CO)NC(=O)[C@@H](NC(=O)[C@H](Cc1ccccc1)NC(=O)[C@@H](NC(=O)CNC(=O)[C@H](CCC(=O)O)NC(=O)[C@H](C)NC(=O)CCc1cnc[nH]1)[C@@H](C)O)[C@@H](C)O)C(C)C)C(=O)N[C@@H](C)C(=O)N[C@@H](Cc1c[nH]c2ccccc12)C(=O)N[C@@H](CC(C)C)C(=O)N[C@H](C(=O)N[C@@H](CCCNC(=N)N)C(=O)NCC(=O)N[C@@H](CCCNC(=N)N)C(=O)N[C@@H](CCCCNC(=O)COCCOCCNC(=O)COCCOCCNC(=O)CC[C@H](NC(=O)CCCCCCCCCCCCCCCCC(=O)O)C(=O)O)C(=O)NCC(=O)NCC(=O)N[C@@H](CO)C(=O)N[C@@H](CCSC)C(=O)N[C@H](C(=O)N[C@@H](CCCCNc1c(NCCCCCN(O)C(=O)CCC(=O)NCCCCCN(O)C(=O)CCC(=O)NCCCCCN(O)C(C)=O)c(=O)c1=O)C(=O)O)C(C)C)C(C)C` [zirconium-89 labelled] the tissue uptake was 0.88 %ID/g (ex vivo gamma counting; male Sprague-Dawley rats, lung; intravenous, 1 nmol, 24 h, mean of 3 animals).
`O=[N+]([O-])c1ccc2c(c1)S(=O)(=O)C=C2` gave a plateletcrit of 5.1 mL/L (male C57BL/6 mice, blood; intraperitoneal, 10 mg/kg, day 8, group average).
`Cc1nc([C@@](C)(CC2CC2)NC(=O)c2cc(OCC(F)(F)F)c(C3CC3)cn2)no1` has an oral bioavailability of 68% (C57BL/6 mice; oral, dose not given).
Under “patients with TEAE”, `Cc1cn([C@H]2O[C@@H](CO[P@@](=O)(N[C@@H](C)C(=O)OC(C)C)Oc3ccccc3)[C@H](O)[C@H]2F)c(=O)[nH]c1=O` is recorded as 0% (measured: Thrombocytosis; human; 25 mg).
Under “patients with Rash TEAE”, `C[C@]1(O)C[C@@](N)(c2ccc(-c3nc4n(c3-c3ccccc3)COc3ccncc3-4)cc2)C1` is recorded as 58.8% (human, advanced or metastatic solid tumours; dose not given, all patients, any grade).
`O=C1Nc2cc3[nH]nc(-c4ccncc4)c3cc2CN1Cc1ccccc1`: “patients with ≥1 TEAE” 100% (CTCAE v4.03; advanced solid tumour patients; intravenous, 3.6 mg/kg, schedules 1/2).
`CN1CC[C@@H](c2c(O)cc(O)c3c(=O)cc(-c4ccc(C(F)(F)F)cc4Cl)oc23)[C@@H]1CO` — result for “patients with adverse event”: 0% (measured: Dyspnea; B-cell malignancies; oral, 100 mg, intermittent dosing).
`O=C(Nc1ccccc1)C1CCN(C(=O)Oc2cccnc2)CC1`: “change in external perception score” 0.2 (psychotropic effects VAS; healthy women; 60 mg; relative to: pre-dose baseline, direction not given).
`CC(C)(C)c1cc(-n2nc3ccccc3n2)c(O)c(C(C)(C)C)c1` gave a dermal uptake of 1.52 ng/kg body weight/day (exposure assessment; human, age 21-60 years, sunscreen).
`O=c1ccc2ncc(=O)n3c2n1C[C@H]3CN1CCC(NCc2cc3c(cn2)OCCC3)CC1` — result for “incidence of device site dermatitis”: 0% (healthy human volunteers; oral, 1500 mg, rifampicin cohort, with: rifampicin 600 mg).
`CCN1CCN(Cc2ccc(Nc3ncc(F)c(-c4cc(F)c5nc6n(c5c4)[C@H](C)CCC6)n3)nc2)CC1`: “creatinine renal clearance decreased” 4.2% (Phase Ia dose escalation; patients with advanced solid tumours; dose not given, monotherapy, grade ≥3).
Under “participants with TEAE leading to death”, `CN1C(=O)[C@@H](NC(=O)c2nnc(Cc3ccccc3)[nH]2)COc2cccnc21` is recorded as 0% (phase I multiple ascending dose; human, male and female; oral, 600 mg, 14 days).
`COc1ccc(-c2c(-c3ccc(C#N)c(F)c3)nc(N3CCC(N)CC3)n(C)c2=O)cc1F` — result for “treatment-related adverse event incidence”: 6% (measured: Vomiting; human patients; oral, dose not given, any grade, dose escalation, NG).
`CO[C@H]1C[C@@H]2CC[C@@H](C)[C@@](O)(O2)C(=O)C(=O)N2CCCC[C@H]2C(=O)O[C@H]([C@H](C)C[C@@H]2CC[C@@H](OC(=O)NCCOCCOCCOCCOCCOCCOCCOCCOCCC(=O)N3CCc4cc(Cn5nc(-c6ccc7oc(N)nc7c6)c6c(N)ncnc65)ccc4C3)[C@H](OC)C2)C[C@@H](O)[C@H](C)/C=C(\C)[C@@H](O)[C@@H](OC)C(=O)[C@H](C)C[C@H](C)/C=C/C=C/C=C/1C` — result for “AEs leading to dose reduction”: 0% (dose-escalation trial; patients with advanced solid tumours; intravenous, 1.6 mg/3 mg weekly, grade ≥3).
`C[C@@H]1OC(=O)NN=C1c1ccc(-c2ccc(F)cc2)c(C(F)(F)F)c1` — result for “patients with adverse event”: 20% (phase I trial, measured: Anaemia worst grade 1; human patients; dose not given, all dose groups).
The Cmin of `CCc1nc(C(N)=O)c(Nc2ccc(N3CCC(N4CCN(C)CC4)CC3)c(OC)c2)nc1NC1CCOCC1` is reported as 1170 ng/mL (human, plasma; oral, 450 mg once daily, cycle 1 day 15).
For `CCCCCOc1ccc(-c2ccc(-c3ccc(C(=O)N[C@H]4C[C@@H](O)[C@@H](OCC[N+](C)(C)C)NC(=O)[C@@H]5[C@@H](O)[C@@H](C)CN5C(=O)[C@H]([C@@H](C)O)NC(=O)[C@H]([C@H](O)[C@@H](O)c5ccc(O)cc5)NC(=O)[C@@H]5C[C@@H](O)CN5C(=O)[C@H]([C@@H](C)O)NC4=O)cc3)cc2)cc1`, the aspartate aminotransferase was 16.5 U/L (adult ICU patients, mITT, serum; dose not given, Follow-up).
For `CCCC1CCC(C2CCC(c3ccc(F)c(F)c3)CC2)CC1` (stereo not drawn), the placental accumulation was 673 ± 1010 ng/g (rat, placenta; 5000 ng/mL in perfusate, high dose, mixture of 21 LCMs).
With `CC(C)C[C@H](NC(=O)[C@H](CCCCN)NC(=O)OCC1c2ccccc2-c2ccccc21)C(=O)N[C@H](C(=O)N[C@@H](Cc1ccccc1)C(=O)N[C@@H](Cc1ccccc1)C(=O)N[C@@H](CCCCN)C(=O)NCC(=O)N[C@@H](Cc1ccccc1)C(=O)N[C@@H](C)C(=O)N[C@@H](Cc1c[nH]c2ccccc12)C(=O)N[C@@H](CC(N)=O)C(=O)N[C@H](C(=O)N[C@H]1CSSC[C@@H](C(=O)N[C@@H](Cc2c[nH]cn2)C(=O)N[C@@H](CCCNC(=N)N)C(=O)N[C@@H](CCCNC(=N)N)C(=O)N[C@@H](C)C(=O)N[C@@H](CC(N)=O)C(N)=O)NC(=O)[C@H](C(C)C)NC(=O)[C@H](CCCNC(=N)N)NC(=O)[C@H](C(C)C)NC(=O)CNC(=O)[C@H](CC(N)=O)NC(=O)[C@H](CCCNC(=N)N)NC(=O)[C@H](Cc2ccc(O)cc2)NC(=O)[C@H](C(C)C)NC1=O)C(C)C)C(C)C` the MCV was 40.9 ± 0.64 fL (ICR mouse, blood; intramammary, 5 mg/kg, day 5, 3 d dosing).
`CC(=O)c1c(C)c2cnc(Nc3ccc(C4CCN(CCS(C)(=O)=O)CC4)cn3)nc2n(C2CCCC2)c1=O` has a clearance of 887 mL/min (human, dose-escalation trial, plasma; oral, 25 mg twice daily, day 21, multiple doses).
Under “subjects with drug-related TEAEs”, `C[C@]1(CO)Cc2ncn(-c3ccc(C#N)c(Cl)c3)c2C(=O)O1` is recorded as 11.1% (investigator-assessed; human; 20 mg multiple doses, fasted).
`CCC[C@@](N)(CO)CCc1ccc(OCCCCCC(C)C)cc1` gave a Tmax of 0.25 h (hound dogs, male; intravenous, 0.25 mg/kg, median).
`Fc1ccc([C@@H]2CCNC[C@H]2COc2ccc3c(c2)OCO3)cc1`: “List of Complaints score” 0 score (measured: Irritability; healthy volunteers; oral, dose not given, given -1 h relative to LSD, with: LSD; direction not given).
For `Cc1ccc(F)c2cc(C(=O)N[C@@H]3CCC[C@H](N4CC[C@H](N(C)S(C)(=O)=O)C4)C3)[nH]c12`, the MRT(0-inf) was 2.6 h (CD1 mouse; intravenous, 1 mg/kg).
Under “serum enzyme activity”, `O=S(=O)(Nc1ccccc1)c1ccc(NC(=S)Nc2ccccc2)cc1` is recorded as 531 U/L (measured: AST; female mouse, blood; oral, 80 mg/kg daily, 14 days).
`[O-][S+]1CCc2nc(N3CCC(c4ncc(Cl)cn4)CC3)nc(NC3(CO)CCC3)c21` (stereo not drawn): “adverse event incidence” 0% (measured: Constipation; healthy male humans; 6 mg twice daily).
`COc1cc2c(Oc3ccc4[nH]c(C)cc4c3F)ccnc2cc1OCC1(N)CC1`: “grade 1 or 2 blurred vision” 0% (paediatric recurrent refractory sarcoma; 10 mg).
For `COc1ncccc1-c1cnn2ccc(N3CCN(C(=O)OC(C)C)CC3)nc12`, the drug concentration was 8.7 µM (mouse nerve ligation model, brain; oral, 10 mg/kg, 30 min after last dose, repeat dosing day 5).
For `Cn1cncc1-c1c(F)cncc1NC(=O)c1c(N)nn2cc(F)cnc12`, “grade ≥3 hyperkalaemia incidence” read 0% (human patients; oral, 270 mg once daily).
For `C[C@H]1CN(c2n[nH]c3nc(N[C@H]4CC[C@H](NS(=O)(=O)CCC(F)(F)F)CC4)ncc23)CCO1`, the remaining binding was 1.04 (14-3-3 protein epsilon (Homo sapiens, UniProt P62258); Kinobeads competition, measured: YWHAE; 0.032 µM, unit not given; relative to: vehicle).
`CC(C)[C@@H]1NC(=O)CNC(=O)[C@H](CC(N)=O)NC(=O)[C@H](CCCNC(=N)N)NC(=O)[C@H](Cc2ccc(O)cc2)NC(=O)[C@H](C(C)C)NC(=O)[C@@H](NC(=O)[C@@H](NC(=O)[C@H](CC(N)=O)NC(=O)[C@H](Cc2c[nH]c3ccccc23)NC(=O)[C@H](C)NC(=O)[C@H](Cc2ccccc2)NC(=O)CN)C(C)C)CSSC[C@@H](C(=O)N[C@@H](Cc2cnc[nH]2)C(=O)N[C@@H](CCCNC(=N)N)C(=O)N[C@@H](CCCNC(=N)N)C(=O)N[C@@H](C)C(=O)N[C@@H](CC(N)=O)C(N)=O)NC(=O)[C@H](C(C)C)NC(=O)[C@H](CCCNC(=N)N)NC1=O` gave a neutrophils of 17.3 ± 0.65% (ICR mice, blood; intraperitoneal, 5 mg/kg, day 5).
With `S=c1oc(-c2ccccc2)nn1CN1CCN(Cc2ccccc2)CC1` the serum ALT was 41 ± 3.3 U/L (Wistar rat female; oral, 500 mg/kg, acute toxicity OECD 423).
For `N[C@@H]1c2ccccc2OC12CCN(c1cnc3c(N4CCCc5ncccc54)n[nH]c3n1)CC2`, “TEAE leading to interruption” read 66.7% (advanced metastatic solid tumour patients; oral, 50 mg once daily).
For `Clc1ccc(Cl)c(-c2cc(Cl)ccc2Cl)c1`, the concentration was 2020 ng/g (Sprague Dawley rat female, adipose tissue; intraperitoneal, 100 mg/kg, 3 weeks).
`Cc1cc(C)c(CNC(=O)c2cc(Cl)c3c(c2C)O[C@@](C)([C@H]2CC[C@H](N(C)C)CC2)O3)c(=O)[nH]1` has a Nasopharyngitis incidence of 0% (human, relapsed/refractory NHL; concentration not given, all TEAEs, grade 5).
Under “patients with adverse event”, `CCN(CCO)CCCC(C)Nc1ccnc2cc(Cl)ccc12` (stereo not drawn) is recorded as 14% (measured: Agitation grade 1; newly diagnosed glioblastoma patients; oral, 400 mg/dose, with radiotherapy and temozolomide).
With `COc1ccc2nc3cc(Cl)ccc3c(Nc3cc(CN4CCCC4)c(O)c(CN4CCCC4)c3)c2n1` the urea level was 2.2 µmol/L (mouse, blood; intraperitoneal, 14 mg/kg).

Repeated from above:
For `CCCC1CCC(C2CCC(c3ccc(F)c(F)c3)CC2)CC1` (stereo not drawn), the placental accumulation was 673 ± 1010 ng/g (rat, placenta; 5000 ng/mL in perfusate, high dose, mixture of 21 LCMs).
With `CC(C)C[C@H](NC(=O)[C@H](CCCCN)NC(=O)OCC1c2ccccc2-c2ccccc21)C(=O)N[C@H](C(=O)N[C@@H](Cc1ccccc1)C(=O)N[C@@H](Cc1ccccc1)C(=O)N[C@@H](CCCCN)C(=O)NCC(=O)N[C@@H](Cc1ccccc1)C(=O)N[C@@H](C)C(=O)N[C@@H](Cc1c[nH]c2ccccc12)C(=O)N[C@@H](CC(N)=O)C(=O)N[C@H](C(=O)N[C@H]1CSSC[C@@H](C(=O)N[C@@H](Cc2c[nH]cn2)C(=O)N[C@@H](CCCNC(=N)N)C(=O)N[C@@H](CCCNC(=N)N)C(=O)N[C@@H](C)C(=O)N[C@@H](CC(N)=O)C(N)=O)NC(=O)[C@H](C(C)C)NC(=O)[C@H](CCCNC(=N)N)NC(=O)[C@H](C(C)C)NC(=O)CNC(=O)[C@H](CC(N)=O)NC(=O)[C@H](CCCNC(=N)N)NC(=O)[C@H](Cc2ccc(O)cc2)NC(=O)[C@H](C(C)C)NC1=O)C(C)C)C(C)C` the MCV was 40.9 ± 0.64 fL (ICR mouse, blood; intramammary, 5 mg/kg, day 5, 3 d dosing).
`CC(=O)c1c(C)c2cnc(Nc3ccc(C4CCN(CCS(C)(=O)=O)CC4)cn3)nc2n(C2CCCC2)c1=O` has a clearance of 887 mL/min (human, dose-escalation trial, plasma; oral, 25 mg twice daily, day 21, multiple doses).
Under “subjects with drug-related TEAEs”, `C[C@]1(CO)Cc2ncn(-c3ccc(C#N)c(Cl)c3)c2C(=O)O1` is recorded as 11.1% (investigator-assessed; human; 20 mg multiple doses, fasted).
